Published values pooled from the literature.
Each line is one published result; not all experiments were run side by side. ± gives the spread as reported.

`CC(C)C[C@H](NC(=O)[C@H](Cc1ccccc1)NC(=O)[C@H](Cc1c[nH]cn1)NC(=O)CNC(=O)[C@H](CC(C)C)NC(=O)[C@@H](NC(=O)[C@@H](N)Cc1ccc(O)cc1)C(C)C)C(=O)N[C@@H](Cc1ccccc1)C(=O)N[C@@H](CC(=O)O)C(=O)N[C@@H](CCCNC(=N)N)C(=O)N[C@@H](Cc1ccccc1)C(=O)NCC(N)=O` — result for “time to darkening”: 1 min (skin pigmentation; Anolis carolinensis; intraperitoneal, 2 µg/g).
Under “total soluble Aβ reduction”, `CCC1CC2C(C)=CC3C(=O)CCCC3C=CC(C)=CC2C(=O)O1` (centres unmarked) is recorded as 49.7% (dot blot; 5XFAD transgenic mouse, cortex; oral, 30 mg/kg/day three times per week, 1 month; baseline: vehicle).
Under “plasma total cholesterol”, `CC[C@H]1[C@@H](O)[C@@H]2[C@H](CC[C@]3(C)[C@@H]([C@H](C)CCOS(=O)(=O)[O-])CC[C@@H]23)[C@@]2(C)CC[C@@H](O)C[C@@H]12.[Na+]` is recorded as 7.2 ± 0.4 mmol/L (ob/ob NASH mice, plasma; oral, 10 mg/kg once daily, 8 wk).
`C=C(c1cc(F)c(C(=O)O)c(F)c1)c1cc2c(cc1C)C(C)(C)CCC2(C)C`: “log2 fold change” 0.78 (RNA sequencing, item: Upp1; rat, brain; dose not given, 24 h; baseline: vehicle).
`C=C1C(=O)OC2C1CCC1(C)OC13CC1OC1(C)C23` (single isomer, unassigned) — result for “tumour growth inhibition”: 59 to 88% (Pliss lymphosarcoma, outbred white rat; intraperitoneal, maximum tolerated dose, daily, 5 days).
For `C=C(c1ccc(C(=O)O)c(F)c1)c1cc2c(cc1C)C(C)(C)C=CC2(C)C`, “log2 fold change” read -1.78 (RNA sequencing, item: Abca1 mRNA; rat, brain; dose not given, 24 h, single dose; baseline: vehicle).
The paw volume of `O=[N+]([O-])c1cccc(S(=O)(=O)NC[C@@H](O)[C@@H]2CCc3cc(F)ccc3O2)c1` is reported as 1.2 ± 0.38 mL (rat, carrageenan paw oedema; oral, 100 mg/kg, 6 h after carrageenan).
`Cc1nc(C)c(C=[N+]([O-])C(C)(C)C)nc1C`: “protein level increase” 23.9% (Western blot, item: HO-1; mouse, MPTP model, substantia nigra nuclei; 10 mg/kg).
`CCCCCCCCCCCCCCCC(=O)N[C@@H](CCC(=O)NCCCC[C@H](NC(=O)[C@H](CC(=O)O)NC(=O)[C@H](CO)NC(=O)[C@@H](NC(=O)[C@H](Cc1ccccc1)NC(=O)[C@@H](NC(=O)CNC(=O)[C@H](CCC(N)=O)NC(=O)[C@H](CO)NC(=O)[C@@H](N)Cc1c[nH]cn1)[C@@H](C)O)[C@@H](C)O)C(=O)N[C@@H](CO)C(=O)N[C@@H](CCC(=O)O)C(=O)N[C@@H](Cc1ccc(O)cc1)C(=O)N[C@@H](CC(C)C)C(=O)N[C@@H](CC(=O)O)C(=O)N[C@@H](CO)C(=O)N[C@@H](CCC(=O)O)C(=O)N[C@@H](CCCNC(=N)N)C(=O)N[C@@H](C)C(=O)N[C@@H](CCCNC(=N)N)C(=O)N[C@@H](CC(=O)O)C(=O)N[C@@H](Cc1ccccc1)C(=O)N[C@H](C(=O)N[C@@H](C)C(=O)N[C@@H](Cc1c[nH]c2ccccc12)C(=O)N[C@@H](CC(C)C)C(=O)N[C@@H](CCC(=O)O)C(=O)N[C@@H](C)C(=O)NCC(=O)NCC(=O)O)C(C)C)C(=O)O` has a glucose AUC of 1280 mmol·min/L (intraperitoneal glucose tolerance test; diet-induced obese mouse; subcutaneous, 30 nmol/kg daily, day 21, with: glucose 1 g/kg intraperitoneal).
`COc1ccc(C2CC(c3ccc(C)cc3)=Nc3ccccc3S2)cc1` (centres unmarked) gave a blood glucose of 117 ± 4.71 mg/dL (rat, normal, overnight fasted; oral, 20 mg/kg, 60 min, oral glucose tolerance test, with: glucose 3 g/kg oral).
`CC(C)[C@H](NC(=O)CN)C(=O)N[C@@H](CCCCN)C(=O)NCC(=O)N[C@@H](CC(=O)O)C(=O)N[C@@H](CCCCN)C(=O)NCC(=O)N[C@@H](CC(N)=O)C(=O)N1CCC[C@H]1C(=O)NCC(=O)N[C@@H](Cc1c[nH]c2ccccc12)C(=O)N1CCC[C@H]1C(=O)NCC(=O)N[C@@H](C)C(=O)N1CCC[C@H]1C(=O)O` gave a cell adhesion of 1.1% (UV 2237 fibrosarcoma, mouse; 100 µg/mL coating, peptide-coated plates; baseline: input cells).
`Cc1ccc(N(O)/N=N/c2ccc(S(=O)(=O)Nc3nccs3)cc2)cc1` has an inhibition of 65.7% (paw oedema; rat, carrageenan oedema; oral, 100 mg/kg, 4 h after carrageenan; baseline: vehicle).
`Cc1cc(O)c(C=O)c2c1C(=O)Oc1c(CO)c(O)c3c(c1O2)C(O)OC3=O` (centres unmarked): “seminiferous tubule diameter” 235 ± 10.4 µm (histopathology; rat, male, streptozotocin-induced diabetes, testis; 10 mg/kg, 9 weeks).
For `COc1cc(Cn2ccc3cc(C(=O)NCC45CC6CC(CC(C6)C4)C5)ccc32)ccc1C(=O)NO`, NeuN-positive signal read “increased” (immunohistochemistry; 5xFAD mice, hippocampus; intraperitoneal, 10 mg/kg daily, 2 months; baseline: vehicle).
Under phospho-p65 level, `CCOP(=O)(OCC)OCCCCOC(=O)C(C)c1ccc(CC(C)C)cc1` (centres unmarked) is recorded as “inhibited” (immunofluorescence; rat, AOM-induced colon cancer, colon; dose not given, 40 weeks).
`COc1cc(O)c(Cl)cc1/C=C/C(=O)c1ccc(C(F)(F)F)cc1` — result for “total cell count”: “decreased” (mouse LPS acute lung injury, BALF; dose not given; baseline: LPS alone).
`CCOP(=O)(CC(=O)Nc1ccc(S(=O)(=O)N(CC(N)=O)c2ccc(N(CC(N)=O)S(=O)(=O)c3ccc(OC)cc3)c3ccccc23)cc1)OCC` — result for “active avoidance count”: “increased” (active avoidance test; APP/PS1 mice; intragastric, 40 mg/kg, 60 days, lentivirus intracerebroventricular; baseline: untreated APP/PS1).
For `CCCCCCCOC(=O)Cc1c(C)n(C(=O)c2ccc(Cl)cc2)c2ccc(OC)cc12`, “latency of nociceptive response” read 16.1 ± 1.25 s (hot plate test; BALB/c mice; 75 mg/kg, 30 min).
`CC/C=C\C/C=C\C/C=C\C/C=C\C/C=C\CCCCOC(CC)C(=O)O` (centres unmarked) — result for “plasma ALT change”: -33% (ob/ob mice; dose not given, 4 weeks; baseline: control).
`Cc1ccc(S(=O)(=O)N(CCc2nnc(S)o2)c2ccc(Cl)cc2)cc1`: “paw edema inhibition” 75.1% (rat; 75 mg/kg, 5 h, with: carrageenan).
`Cc1cc2c(cc1C1(c3ncc(C(=O)O)cn3)CC1)C(C)(C)CCC2(C)C`: “log2 fold change” 0.45 (RNA sequencing, item: Emr4 mRNA; rat, brain; dose not given, 24 h, single dose; baseline: vehicle).
`Cc1ccc(S(=O)(=O)N(CCc2nnc(S)n2N)c2ccccc2)cc1` gave an inhibition of 57.6% (paw oedema; rat carrageenan oedema; dose not given, 6 h).
`COc1ccc(-n2cc(CO)nn2)cc1` gave a clotting time of 44.5 ± 0.6 s (aPTT; human plasma; 1 µM).
`COc1c2c(cc3oc(CO)cc(=O)c13)O[C@H](C(C)(C)O)C2` — result for “hot plate latency”: 12.6 ± 2.8 s (analgesia; mouse; oral, 2 mg/kg, 0.5 h).
`CCCCCCCCCC(=O)OCc1cn(-c2ccc(Cl)cc2)nn1` gave a clotting time of 47.8 ± 0.7 s (aPTT; human plasma; 1 µM).
`[2H]c1c(NS(C)(=O)=O)c([2H])c2c(C(=O)c3ccc(OCCCN(CCCC)CCCC)cc3)c(CCCC)oc2c1[2H]` — result for “AF conversion to sinus rhythm”: 50% (dog persistent AF model; intravenous, 3 mg/kg; baseline: animals).
For `C[C@H]1CN(C(=O)c2cn(-c3ccnc(N)n3)c3cc(C#CC4(O)CCCCC4)ccc23)CCN1`, “mice with lung metastases” read 34.6% (A549, mice, lung metastasis model; intravenous, 25 mg/kg daily).
`Cc1cc(C)c(-c2[nH]nc(C)c2C)cc1C(=O)N1CC(c2ccc(C#N)cc2)C1` — result for “tumour growth inhibition”: 14% (Calu-6 xenograft, Mus musculus; oral, 60 mg/kg once daily, 96 h; baseline: vehicle).
For `CCOC(=O)C(Cc1cccc(O)c1)OC(=O)C=Cc1ccc(O)c(O)c1C=Cc1ccc(O)c(O)c1` (centres unmarked), “serum CK-MB level” read 105 ± 13% (C57 wild-type mice, isoproterenol-induced myocardial ischemia, serum; oral, 10 mg/kg pretreatment for 7 days, with: isoproterenol 3 mg/kg; baseline: normal group).
`CN1Cc2c(Cl)cc(Cl)cc2C(c2cccc(S(=O)(=O)NCCOCCOCCNC(=O)C(O)C(O)C(=O)NCCOCCOCCNS(=O)(=O)c3cccc(C4CN(C)Cc5c(Cl)cc(Cl)cc54)c3)c2)C1` (centres unmarked) — result for “fecal water content”: 53 % by weight (Sprague Dawley rats; oral, 3 mg/kg, 16 h).
`CC(=O)N[C@@H](CC(N)=O)C(=O)NCC(=O)N[C@@H](C)C(=O)N[C@@H](C)C(N)=O`: “rate constant succinimide to α-Asp” 0.68 h⁻¹ (1H NMR; sodium phosphate buffer 50 mM; pH 7.4, 55 °C).
The clotting time of `OCc1cnn(-c2ccccc2)n1` is reported as 15.5 ± 1 s (prothrombin time; human plasma; 1 µM).
`Cc1cc(Nc2cc3ncccc3c(N[C@@H]3C[C@H]4CC[C@@H](C3)N4CCC#N)n2)n[nH]1` gave an endoscopic response of 9% (moderate-severe ulcerative colitis patients; 270 mg, day 28; baseline: patients).
`CCCCCCCCCCCCCCCC(=O)OCC(CSC[C@H](N)C(=O)N[C@@H](CO)C(=O)N[C@@H](CCCCN)C(=O)N[C@@H](CCCCN)C(=O)N[C@@H](CCCCN)C(=O)N[C@@H](CCCCN)C(=O)NCCCCCC(=O)N[C@@H](CCCCN)C(=O)N[C@@H](CC(C)C)C(=O)N[C@H](C(=O)N[C@@H](Cc1ccccc1)C(=O)N[C@@H](Cc1ccccc1)C(=O)N[C@@H](Cc1ccc2ccccc2c1)C(=O)O)C(C)C)OC(=O)CCCCCCCCCCCCCCC` (some centres unmarked) — result for Iba1 staining: “increased” (APP/PS1 mouse; intracortical, dose not given, 2 d; baseline: vehicle).
For `CNc1oc(-c2cccc3ccccc23)nc1C#N`, plasma insulin read “decreased” (C57BL/6J mice, low-dose STZ diabetes; ip, 48 mg/kg daily; baseline: non-STZ controls).
Under “latency of nociceptive response”, `CCCOC(=O)Cc1c(C)n(C(=O)c2ccc(Cl)cc2)c2ccc(OC)cc12` is recorded as 15.6 ± 0.93 s (hot plate test; BALB/c mice; 100 mg/kg, 120 min).
`CCOCn1cc(F)c(=O)n(C(=O)c2cccc(C(=O)Oc3cc(OC(=O)c4cc(OC(=O)CC)nc(OC(=O)CC)c4)c(Cl)cn3)c2)c1=O` — result for “tumour growth inhibition”: “inhibited” (nude rat, KM12C xenograft; oral, 100 to 112.5 µmol/kg once daily, 14 days).
`O=[N+]([O-])c1cc(Br)cc([N+](=O)[O-])c1NS(=O)(=O)c1ccc(Br)cc1`: “number of induced DEGs” 1700 (RNA-Seq; Arabidopsis thaliana Col seedlings, ten-day-old; 50 µM, 3 h; baseline: DMSO).
For `O/N=C/c1cnn(-c2ccccc2)n1`, the clotting time was 278 ± 8 s (plasma recalcification time; human plasma; 1 µM).
`O=S(=O)(c1ccccc1)N(CCc1nnc(S)o1)c1ccc(Cl)cc1`: “paw edema inhibition” 51.6% (rat; 200 mg/kg, 1 h, with: carrageenan).
The ED50 of `CC(=O)c1cnc(N)nc1N1CC[C@H]1c1nn2ccc(Cl)c2c(=O)n1-c1ccccc1` is reported as 0.25 mg/kg (arthritic inflammation; rat collagen-induced arthritis; oral, twice daily).
